Results from different studies.
Numbered parts are unrelated; each lists some results of a single study. Substitutions count along the parent as printed.

Study 1
Target: ABI1, truncated, D143A, DHFR fusion (Arabidopsis thaliana)
Method: DHFR PCA, deep sequencing
Matrix: yeast
Notes: methotrexate growth selection, single substitutions
Together with: (+)-ABA 0 µM
Relative to: wild-type fitted maximum
Reading: higher = stronger binding
Starting sequence: PYL1, truncated, DHFR fusion (Arabidopsis thaliana); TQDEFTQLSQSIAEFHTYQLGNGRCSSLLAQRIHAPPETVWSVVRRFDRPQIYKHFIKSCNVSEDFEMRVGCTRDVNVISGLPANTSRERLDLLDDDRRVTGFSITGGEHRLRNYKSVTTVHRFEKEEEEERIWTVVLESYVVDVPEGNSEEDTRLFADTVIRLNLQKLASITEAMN
Substitution	relative binding score [%]
H16D	-0.119
S42H	7.64
I52W	7.26
L156M	23.7
A170R	20.9
T106Q	9.68
R132L	11.7
T160E	11.6
D159Q	-3.77
Q19K	39.6
T6S	39.2
Q167G	4.32
V137A	3.1
L91P	2.32
T6K	54.2
I33K	-4.06
Y115F	19.2
I172L	12.2
V118K	-1.47
V143G	-4.72
A158F	-3.87
V142M	-4.32
M176A	7.37
F157E	6.66
P50W	7.09

Study 2
Target: Prothrombin, mature alpha-thrombin (F2, Homo sapiens, UniProt P00734)
Method: aptamer microarray, sandwich
Molecule type: DNA with 2'F-ANA
Matrix: in vitro
Concentration: 200 nM
Notes: whole 15-mer aptamer, many near background
Together with: Cy3 exosite-II aptamer, 400 nM
Reading: higher = stronger binding
Oligonucleotide: GGTTGGTGTGGTTGG
Modification	mean fluorescence intensity [a.u.]
2'F-ANA at 1 2 4 7 8 9 11 13 15	93.8
2'F-ANA at 1 4 5 6 7 11 13	50.4
2'F-ANA at 2 10 12 13 15	167
2'F-ANA at 1 3 5 8 9 10 11 12 13 14	45.3
2'F-ANA at 1 3 5 9 11 14	45.5
2'F-ANA at 2 3 5 6 7 9 10 13	50.1
2'F-ANA at 1 6 7 8 10 13	57.7
2'F-ANA at 2 3 5 6 10 11 12 13 14 15	61
2'F-ANA at 2 3 5 6 8 9 11 12 14 15	61.7
2'F-ANA at 1 2 4 5 8 9 10 11 12	53.6
2'F-ANA at 3 6 9 11 14 15	504
2'F-ANA at 2 6 8 10 12 14	88.7
2'F-ANA at 2 3 4 6 12 14 15	298
2'F-ANA at 2 3 6 9 12	1030
2'F-ANA at 2 3 5 6 8 11	86.6
2'F-ANA at 1 4 5 8 14 15	49.9

Study 3
Target: RNA binding protein fox-1 homolog 2, RRM domain, GST-SBP tag (RBFOX2, Homo sapiens, UniProt O43251-10, residues 100-194)
Method: RNA Bind-n-Seq
Molecule type: RNA
Matrix: in vitro
Concentration: 365 nM
Notes: natural RNA segment, single round, ends assumed
Relative to: no-protein control
Reading: higher = stronger binding
Constant ends, left off below: GGGAGUUCUACAGUCCGACGAUC … UGGAAUUCUCGGGUGCCAA
Residues (chain): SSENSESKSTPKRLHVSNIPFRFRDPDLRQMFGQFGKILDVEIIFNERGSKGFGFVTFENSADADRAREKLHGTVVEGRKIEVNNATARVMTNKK
Oligonucleotide	RBNS enrichment (R)
UGGGGUGACAUAAACUAGAUAAAGGGCCUUUCUUGGAGAACUAGGCUUAAGGAAUAUCCCUGUCUUCUGUCUUUUGGUUUUCGUUUGUUCGUCUUUUAUUUUCUUGUGGC	0.772
UAUGAAUGUGCAUUUCUUGACUUCACAGCAGCCACUUGACUAAUACCUUGUGUUCCGGGAAUAACAUGAUACUAUUCAGAGGAGCCAGAAGUAAAGUUUAUUUCAUGGAU	1.16
UCCCCAGAGUGGCUUUCCUGGCACCCUGGCCUGGGUGUCUGGUUCUGUUUUCUUUUCUUCCCCUUGUGUUUCCAGUCACCUAACUUCCCUUCCUCAGGCUCCCCCGGCCC	0.802
AAUGGAGAUUUAAGCACAAUCCUAGCAAGUAAGUUUUAAGAAUACUGAAUAUUAUACAUUAUUGUAACAUGAACCUAAAAUUAAUUUAACAGGGCCCAAAUUCAUAGGAA	0.471
GUGAGCUCUGGUUAUUUUUCUCUUGUACCAUAUGAAAGUAUAUAAAAAUUAUCAAAAAGCUGAUGUGCAGGGAUAUUGCCUUAUUUGUCUGUAAAAAUGUAGCUCAGUAA	0.713
GGAAAGAAAUCGGGAUGCCGCGGAGCACAGAGUGAUUUGGAACUCCAUUCCACCUGACCCUGUGUGUACAAUCCAGGAAAAAAACAAACCCCACUCAGAAACAGAGAAAA	0.279
UAUGUUGCUUUGUAAUUAUUUUCUAGCACUCUGUGUUACAGUUUCAUAUUUGUAUUUAUUUCCAAAAUUAAAUUGUAAGCUCCUUGAGGGCAGGAAUAAUAACUUUUACA	0.4
GGGCACUGCUUAGAUGGCUGUUAGCUUAGAACUGGUGAAGUAAAGAUUUGGUCCCAGAAACCAGCCUGACAUGAGAACAAGCCAGGGUGUCUUCCUGGUGAGUUCUACUC	0.851
CAGCCUAGUGUAGAGGACCUCUCGAAGACAUGCCCAGGGGUUUUUUUCCAGUGAGGUUGUAGACCCUGCAAACCUAACUGUAACAUAGCCUUCACAAGCAUGAUAAACCC	0.511
AAGGAUCCUCAUUUGUAUACCUAGUGGAAAGGACUCUGAACUCAGAGGAGUCACUGUUCCUUUUUUUAGGUUAGAAAUUAACAGCAGGGAAAUGCCAUCUUAUUACCUGA	0.353
AAGAUCAGGGGCAAGACAACUCAGCACACCUGGAACCCUUGGGGUCUUUAAGCAGCCGUGUCCAGGCUUCCUGAGAACACCGGCUGCAAACACGGGCAUCCCGGGGAAAG	0.776
UUUAUUAAGAACUCUUUAUUUUCUUCAUACCCUGUUCUCUGCAGUGCUUUCUAACAGCUUCUGGGUGCAGAUUUUCUUCGGCAUCCUUUUGCACUCAGCUUAUUACAGGU	0.45

Study 4
Target: Histone acetyltransferase KAT6A, winged helix 2, GST fusion (KAT6A, Homo sapiens, UniProt Q92794, residues 85-181)
Method: protein binding microarray
Molecule type: double-stranded DNA, one strand shown
Matrix: in vitro
Concentration: not given
Notes: 8-mer, flanks averaged, mean of 2 arrays, mostly near background
Relative to: not given
Reading: higher = stronger binding
Residues (chain): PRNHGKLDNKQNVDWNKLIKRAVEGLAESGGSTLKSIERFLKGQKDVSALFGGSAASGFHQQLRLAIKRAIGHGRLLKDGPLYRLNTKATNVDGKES
Oligonucleotide	E-score
AGCTATTC	-0.162
AGATCTTG	-0.116
GGAACATA	-0.0203
CCGCCACG	0.048
CCGGGAGA	0.13
GAGTAGGC	-0.0353
TACATACA	-0.024
CAGTTCAC	0.0192
ACTCCCAA	0.0198
CCCCAGAG	0.116
TGTAAACA	-0.121
CCCACGTC	0.184
GTGGACTA	0.0683
CATAGCCC	-0.196
GACGGCCC	0.0908
CGCAGAGC	0.225
GGATCTAA	-0.0598
CAATAAGA	0.162
AAATGGGG	-0.143
CCGACAAC	0.147
ATCTCGAC	-0.0713
GGAATAAC	0.00715

Study 5
Target: CCND2, cyclin fold, Cln2 fusion (human)
Method: yeast growth competition, sequencing
Matrix: yeast
Notes: strong parent motif
Relative to: not given
Reading: higher = stronger binding
Starting sequence: INSM1 docking peptide (human); PKAIRKLHFEDEV
Substitution	normalised enrichment score
PKAIRKLHIEDEV [F9I]	-0.129
PKAIRKYHFEDEV [L7Y]	-0.0686
PKAIRKLPFEDEV [H8P]	0.796
PKKIRKLHFEDEV [A3K]	0.532
PKAIRKLHFSDEV [E10S]	1.79
PKHIRKLHFEDEV [A3H]	0.535
PKAIRKLHVEDEV [F9V]	-0.097
PKAIRKVHFEDEV [L7V]	0.45
PKAIRKTHFEDEV [L7T]	0.117
PPAIRKLHFEDEV [K2P]	1.36
PKAIRKLHGEDEV [F9G]	0.445
PKAIRKHHFEDEV [L7H]	-0.223
PKAIRKLGFEDEV [H8G]	1.04
PKAIRKDHFEDEV [L7D]	-0.144
PKSIRKLHFEDEV [A3S]	0.694
PKAIRKLHFGDEV [E10G]	2.53
PKAIRELHFEDEV [K6E]	1.24
PKARRKLHFEDEV [I4R]	1.83

Study 6
Target: Sal-like protein 4, full length isoform B (SALL4, Homo sapiens, UniProt Q9UJQ4-2, residues 1-616)
Method: universal PBM
Molecule type: double-stranded DNA, one strand shown
Matrix: in vitro
Concentration: not given
Notes: 8-mer, flanks averaged, mean of replicates
Reading: higher = stronger binding
Oligonucleotide	E-score
ATGTTCCA	0.0525
CGGTCTAC	-0.0988
CGTGGAAA	0.153
AACCCGAC	-0.098
ACCTACTA	0.151
AAATACAC	0.161
GTCCGCTA	-0.122
CACGGGAA	-0.259
AGGATGTC	-0.101
CGAATCAA	0.186
GTGAGGGA	-0.165
CCACAGGA	-0.0293
AACCCTCT	-0.0421
ACGACGGA	-0.0829
AATCTGAA	0.165
CGTATGGA	0.0683
AAATGTTG	0.178
GCGGGGTA	-0.102
CCTGCACA	-0.17
TGGCTGAA	-0.0378
AAATCCGG	-0.202
TGGTGGAA	-0.0462
AACTGGGA	-0.12
CCGCGGCC	-0.382

Some of these lines once more (study 5):
Substitution	normalised enrichment score
PKAIRKLHIEDEV [F9I]	-0.129
PKAIRKYHFEDEV [L7Y]	-0.0686
PKAIRKLPFEDEV [H8P]	0.796
PKKIRKLHFEDEV [A3K]	0.532
PKAIRKLHFSDEV [E10S]	1.79
PKHIRKLHFEDEV [A3H]	0.535
PKAIRKLHVEDEV [F9V]	-0.097
PKAIRKVHFEDEV [L7V]	0.45
PKAIRKTHFEDEV [L7T]	0.117
PPAIRKLHFEDEV [K2P]	1.36
PKAIRKLHGEDEV [F9G]	0.445
PKAIRKHHFEDEV [L7H]	-0.223
PKAIRKLGFEDEV [H8G]	1.04
PKAIRKDHFEDEV [L7D]	-0.144
PKSIRKLHFEDEV [A3S]	0.694
PKAIRKLHFGDEV [E10G]	2.53
PKAIRELHFEDEV [K6E]	1.24
PKARRKLHFEDEV [I4R]	1.83
